Experimental data pooled from the literature.
Protocols differ between the studies behind these lines. ± marks the error that the study gave.
DRD4: D(4) dopamine receptor (DRD4, Homo sapiens, UniProt P21917)
UniProt P21917, sequence (whole entry, looked up): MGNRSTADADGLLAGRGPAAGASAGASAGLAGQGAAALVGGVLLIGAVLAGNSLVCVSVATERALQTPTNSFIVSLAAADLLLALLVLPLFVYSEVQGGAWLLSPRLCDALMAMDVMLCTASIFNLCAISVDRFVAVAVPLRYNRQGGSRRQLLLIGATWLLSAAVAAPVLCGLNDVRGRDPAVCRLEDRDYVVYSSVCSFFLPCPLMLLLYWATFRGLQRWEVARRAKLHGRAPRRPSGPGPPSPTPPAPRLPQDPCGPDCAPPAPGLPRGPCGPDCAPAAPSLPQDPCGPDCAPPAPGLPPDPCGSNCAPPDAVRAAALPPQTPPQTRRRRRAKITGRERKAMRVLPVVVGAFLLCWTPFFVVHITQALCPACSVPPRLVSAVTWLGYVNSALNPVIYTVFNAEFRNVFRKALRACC

Compound	tested on	test	test system	setting	how to read	endpoint	value
C=CC(=O)Nc1cccc(Cn2ncc3cnc(Nc4cnn(CCOC)c4)nc32)c1	human AMPK-alpha1	KINOMEscan		100 nM	baseline: control	binding	100%
CC1(F)CN(C(=O)Cn2c(=O)c(C(=O)NCc3ccc(Cl)cc3)cc3nc(N4CCN(CCN)C4=O)cnc32)C1	Vero	cell viability, CCK-8		5 days		CC50	> 40 µM
COc1cc(C(=O)/C=C/c2ccc(OC(F)F)cc2)ccc1O	U-118-MG	cell growth, MTT		72 h		IC50	15.1 ± 0.76 µM
Cc1ccc2c(Cl)ccc(O)c2n1	RRCK low-efflux MDCK-II cells			1.5 h, 37 °C, apical to basal		Papp	2.27 ×10⁻⁶ cm/s
Nc1ncnc2c1ncn2[C@@H]1O[C@H](CSCc2ccc3ccccc3c2Br)[C@@H](O)[C@H]1O	L2 rat cells	cytotoxicity, crystal violet				CC50	> 200 µM
COc1ccc(O)c2nc(C)ccc12	RRCK low-efflux MDCK-II cells			1.5 h, 37 °C, apical to basal		Papp	2.15 ×10⁻⁶ cm/s
CC(C)C[C@H](NC(=O)[C@@H](CCCCNC(=O)[C@@H](Cc1ccccc1)NC(=O)CCCCCNC(=O)CN1CCN(CC(=O)O)CCN(CC(=O)O)CCN(CC(=O)O)CC1)NC(=O)[C@H](Cc1ccc(O)cc1)NC(=O)[C@H](CO)NC(=O)[C@H](Cc1c[nH]c2ccccc12)NC(=O)[C@H](Cc1c[nH]cn1)NC(=O)[C@@H]1CCC(=O)N1)C(=O)N[C@@H](CCCNC(=N)N)C(=O)N1CCC[C@H]1C(=O)NCC(N)=O [indium-111 labelled]			female athymic nude mice, muscle	intravenous, 0.037 MBq, 2 h		tissue uptake	0.04 ± 0.01 %ID/g
N#Cc1cccc(/C=C/C(=O)c2ccc(O)cc2)c1	U-118-MG	cell growth, MTT		72 h		IC50	4.29 ± 1.42 µM
O=C(Nc1cc(-c2ccnc3[nH]ccc23)c(Cl)cn1)[C@H]1CCC[C@@H](NC(=O)C(F)(F)F)C1	MDCK-MDR1 cells	permeability		time not given, apical to basolateral		recovery	86.6%
Cc1cc(O)c2nc(C)ccc2c1	RRCK low-efflux MDCK-II cells			1.5 h, 37 °C, apical to basal		Papp	0.81 ×10⁻⁶ cm/s
CC(C)C1=CC2=CCC3C(C)(C(=O)OCCC[N+](C)(C)C)CCCC3(C)C2CC1 (centres unmarked)	NIH3T3	cytotoxicity, LDH release		5% FBS		IC50	133 µg/mL
COC1CN([C@H]2CC[C@H]([C@@]3(C)Oc4c(Cl)cc(C(=O)NCc5c(SC)cc(C)[nH]c5=O)c(C)c4O3)CC2)C1		RNA-seq, item: STAB2	human, whole blood	dose not given, 24 h	baseline: pretreatment baseline	log2 fold change	1.31
Cc1cc(=O)c2c(O)c3c(O[C@@H]4O[C@H](CO)[C@@H](O)[C@H](O)[C@H]4O)cc(O)cc3cc2o1	HK-2 co-cultured with HepaRG	MTT		16.67 µM, 24 h	baseline: untreated control	cell viability	98.3 ± 14.1%
CCOC(=O)c1cn(CC(c2c[nH]c3cc(Br)ccc23)c2c[nH]c3cc(Br)ccc23)c(C)c1C(=O)OC	human primary fibroblasts	viability, MTS		24 h		CC50	> 20 µM
Cc1ccc2ccc([N+](=O)[O-])c(O)c2n1	RRCK low-efflux MDCK-II cells			1.5 h, 37 °C, apical to basal		Papp	4.6 ×10⁻⁶ cm/s
O=c1c(O)ccccc1O	LX-2	cell growth or viability, MTS				CC50	71 µM
O=C(OCc1cn(-c2cc3ccc(O)cc3oc2=O)nn1)c1ccccc1	J774	cell growth or viability, ATP luminescence		72 h		CC50	> 80 µM
C[C@@H]1O[C@@H](O[C@@H]2[C@@H](O)[C@H](O)[C@@H](CO)O[C@H]2c2c(O)cc(O)c3c(=O)cc(-c4ccc(O)cc4)oc23)[C@H](O)[C@H](O)[C@H]1O	Caco-2 monolayer	transwell permeability		100 µg/mL, apical to basolateral, HBSS, DMSO 1%, with: SDS 10 mg/mL	baseline: SDS alone	Papp increase	15.5%
CN1CCCNC(=O)c2cccc(c2)C(=O)NCCCN(C)CCCNc2cccc3c2C(=O)c2cccc(c2C3=O)NCCC1	HEK293	cell growth or viability, CCK-8		0.5 µM, 48 h		viability	82%
NCCOCCOCCNC(=O)Cc1ccc(Nc2nc(NCc3ccc(F)cc3)nc(NCC3CCCCC3)n2)cc1	HUVEC	cytotoxicity, CCK-8		48 h, 10% FBS		IC50	69.4 µM
O=CCNCCOn1c(=O)n(OCCNCCO)c(=O)n(OCCNCCOn2c(=O)n(OCCNCCO)c(=O)n(OCCNCCO)c2=O)c1=O	HUVEC	cell growth or viability, MTT		200 µg/mL, 24 h		viability	34.4%

Compound	tested on	test	test system	setting	how to read	endpoint	value
O=C1/C(=C/c2cc(Cl)c(O)c(Cl)c2)CNC/C1=C\c1cc(Cl)c(O)c(Cl)c1	L02	MTT		range over 3.75 to 60 µM, 24 and 48 h		cytotoxicity	not toxic
C[C@]12CC[C@@H]3c4ccc(O)cc4CC[C@H]3[C@@H]1CC[C@@H]2O[C@@H]1O[C@H](C(=O)O)[C@@H](O)[C@H](O)[C@H]1O	HEK293-A empty vector			1 µM, 2 min		uptake	217 fmol/mg protein
Cc1cccnc1-c1csc(C(=O)Nc2cc(Cl)cc(NS(C)(=O)=O)c2)c1	human PBMC	cell growth or viability, ATP luminescence		10 days		CC50	> 10 µM
N[C@@H](CNC(=O)N[C@@H](CS)C(=O)NCC(=O)O)C(=O)O	RPMI-2650 air–liquid interface			concentration not given		TEER after transport	91.8 ± 8 Ω·cm²
Cn1ncc2cc(CN3CCC(F)(F)C(COc4ccc(F)cc4)C3)ccc21 (centres unmarked)	DRD4	ligand displacement, radioligand		cell membranes		Ki	0.001 µM
Cc1ccc2ccc(Br)c(O)c2n1	RRCK low-efflux MDCK-II cells			1.5 h, 37 °C, apical to basal		Papp	4.1 ×10⁻⁶ cm/s
COc1ccc(CN2CCC(F)(F)C(COc3ccc(F)c(F)c3)C2)cc1F (centres unmarked)	DRD4	ligand displacement, radioligand		cell membranes		Ki	0.0055 µM
Cc1nc(=S)[nH]c(C)c1/N=N/c1nnc(S)[nH]1	Vero	cell growth or viability, MTT		72 h		CC50	≥ 10 µg/mL
N=C(N)NCCC[C@@H]1NC(=O)[C@H](CCCNC(=N)N)NC(=O)[C@@H](CCCNC(=N)N)NC(=O)[C@@H](CCCNC(=N)N)NC(=O)[C@@H](C(c2ccccc2)c2ccccc2)NC(=O)[C@H](Cc2c[nH]c3ccccc23)NC(=O)[C@@H](C(c2ccccc2)c2ccccc2)NC1=O	HEK293	cell growth or viability, MTS		100 µg/mL, 24 h		viability	> 90%
Cc1cc(O)c(=O)c(O)cc1C(=O)c1ccccc1	LX-2	cell growth or viability, MTS				CC50	85 µM
O=C(/C=C/c1cc(Br)ccc1F)c1ccc(O)cc1	U-118-MG	cell growth, MTT		72 h		IC50	17 ± 2.67 µM
CC(C)C[C@@H]1NC(=O)[C@@H](CC(C)C)NC(=O)[C@H](CCN)NC(=O)[C@@H](NC(=O)[C@H](CCN)NC(=O)[C@@H](N)[C@@H](C)O)CCNC(=O)[C@H]([C@@H](C)O)NC(=O)[C@H](CCN)NC(=O)[C@H](CCN)NC1=O	ciPTEC overexpressing OAT-1			24 h, 37 °C, serum-free medium		TC50	> 1000 µM
O=C1NC2(CC2)COc2ncc(F)cc2[C@H]2COCCN2c2ccn3ncc1c3n2	CHL cells	chromosomal aberration test		10 µg/mL, 24 h, without S9 mix		cells with chromosome gaps	1%
Cc1ccc2ccc(C)c(O)c2n1	RRCK low-efflux MDCK-II cells			1.5 h, 37 °C, apical to basal		Papp	4.14 ×10⁻⁶ cm/s
CCN(CC)CC#CCNc1ccnc2cc(Cl)ccc12	Salmonella typhimurium	mini-Ames test	TA100	125.0 µg/well, with rat liver S9		mean revertants	24 revertants/well
CCC1(CC)CC(=O)N(C2CCOc3ccc(C(=O)NC4CC(C)(C)Oc5ccccc54)cc32)C(=N)N1 (centres unmarked)	MDCK-II					Papp	11.6 ± 0.6 ×10⁻⁶ cm/s
Cc1ccc2c([N+](=O)[O-])ccc(O)c2n1	RRCK low-efflux MDCK-II cells			1.5 h, 37 °C, apical to basal		Papp	3.86 ×10⁻⁶ cm/s
CC[C@H]1OC(=O)[C@H](C)[C@@H](O[C@H]2C[C@@](C)(OC)[C@@H](O)[C@H](C)O2)[C@H](C)[C@@H](O[C@@H]2O[C@H](C)C[C@H](N(C)C)[C@H]2O)[C@](C)(OC)C[C@@H](C)C(=O)[C@H](C)[C@@H](O)[C@]1(C)O	HEK293	cell growth or viability				CC50	> 32 µg/mL
CNS(=O)(=O)Nc1nccc(Cc2c(C)c3ccc(Oc4ncccc4F)cc3oc2=O)c1F	CAL-33	cell viability		7 days		IC50	0.346 µM
Cc1ncsc1-c1ccc(C(C)NC(=O)C2CC(O)CN2C(=O)C(NC(=O)CCCCCCCCCCN2CCCC(Nc3ncc(Cl)c(Nc4ccccc4S(=O)(=O)C(C)C)n3)C2)C(C)(C)C)cc1 (centres unmarked)	22Rv1	RNA-seq, item: PBX3 mRNA		concentration not given	baseline: DMSO	log2 fold change	-1.21
